Measured values gathered from unrelated publications.
Every numbered part comes from another study and shows a few of its results, in no order. Substitutions count along the parent as printed.

Series 1 — technique: RNA Bind-n-Seq; molecule type: RNA; medium: in vitro; tested at: 200 nM; setting: whole 134-nt RNA, ends assumed; added: 150 mM KCl; relative to: input library; reading: higher = stronger binding
Target: Fragile X messenger ribonucleoprotein 1, C-terminal low-complexity region (Fmr1, Mus musculus, UniProt P35922)
Shared flanks, not repeated: GGGAGUUCUACAGUCCGACGAUC … UGGAAUUCUCGGGUGUCAAGG
| Sequence | log2 enrichment |
| --- | --- |
| AAGUCCUGUGCUACACAUCGUAUGUACCGAAUCGGGUUUUUUUGGGUUUGGGUGGGAAAGUAUUAUGUUACGCCGUUCGGAUCUGCACUU | 1.02 |
| GCAGGAAGUAAAAACAAAUGGGAAUGCUUCGGAUAGUGGCAGGGGUGGGGGUUGCUAAGGAAAGGGUGGGAUGGGAGUGGGUAAAGAGUU | 0.189 |
| AGUCCUGUGCUACACAUCGUAUGUACCGAAUCGGAAAAAGGAAAAAGGGGAAAAAGGAAAGUAUUAUGUUACGCCGUUCGGAUCUGCACU | -0.815 |
| UGGGAGGUGGAUUUUGUUUAUUUGUUUAGCUCAUUUCCAGGGGUGGGAAUUUUUUUUUAAUAUGUGUCAUGAAUAAAGUUGUUUUUGAAA | 0.267 |
| UAAUUAUGUUUUAUUUUCUUUAAUUGCAGGACUUCAUAGACCUCACGUUGUCGAAGACUCAACGAAAGACUCCAACCGUUAUUCAUAAAC | 0.235 |
| GGUAAACGCCCUGCAGAAGAUAUGGAAGAGGAACAAGCAUUUAAAAGAUCUAGAAACACUGAUGAGAUGGUUGAAUUACGCAUUCUGCUU | -0.249 |
| GUCCUGUGCUACACAUCGUAUGUACCGAAUCGGCCCCCGGGGCCCCCGGCCCCCGGGGAAAGUAUUAUGUUACGCCGUUCGGAUCUGCAC | -0.482 |
| UGGGUUCUUAUUUCUAACUUGCAUAUGUUUUGUUUUUCAGAAGGAGUUGAGCCUUCCAAGAAGAGGCAGCUUGUAAGUAGAUGAUUAUUA | -1.13 |
| UAACUUUAGAGGAGGAUCUGAUGGAUAUGGCAGUGGACGUGGAUUUGGGGAUGGCUAUAAUGGGUAUGGAGGAGGACCUGUAGGUGGCAA | 0.141 |
| CAAGUCCUGUGCUACACAUCGUAUGUACCGAAUCGGCCCCGGCCCCGGGCCCCGGGAAAGUAUUAUGUUACGCCGUUCGGAUCUGCACUU | -0.296 |

Series 2 — technique: protein-binding microarray; molecule type: double-stranded DNA, one strand shown; medium: in vitro; tested at: not given; reading: higher = stronger binding
Target: Runt-related transcription factor 1 (RUNX1, Homo sapiens, UniProt Q01196, residues 1-453, full length assumed)
Sequence of UniProt Q01196 (whole entry, looked up): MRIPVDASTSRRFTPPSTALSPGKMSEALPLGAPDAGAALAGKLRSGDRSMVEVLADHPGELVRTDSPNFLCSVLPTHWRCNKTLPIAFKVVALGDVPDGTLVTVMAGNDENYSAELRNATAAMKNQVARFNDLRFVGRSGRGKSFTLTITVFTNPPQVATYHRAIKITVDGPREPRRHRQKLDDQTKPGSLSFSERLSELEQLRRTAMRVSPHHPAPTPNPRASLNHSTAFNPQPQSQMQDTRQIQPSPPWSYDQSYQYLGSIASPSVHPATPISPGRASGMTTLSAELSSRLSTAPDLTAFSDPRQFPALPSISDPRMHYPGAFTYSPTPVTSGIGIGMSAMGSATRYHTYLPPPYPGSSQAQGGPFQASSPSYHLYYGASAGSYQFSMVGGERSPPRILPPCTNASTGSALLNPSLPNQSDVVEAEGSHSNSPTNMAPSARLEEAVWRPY
Setting: k-mer, scored over probes, only values ≥0.25
| Sequence | E-score |
| --- | --- |
| ATACCAC | 0.326 |
| AACCACT | 0.379 |
| AAACCAC | 0.468 |
| TCCCGCA | 0.277 |
| TGGTTAA | 0.282 |
| AAGTGGT | 0.306 |
| ACCGCGA | 0.429 |
| GCGGTCA | 0.443 |
| TCCGCAA | 0.292 |
| TGCCGCA | 0.252 |
| ACTAACC | 0.287 |
| ACCGCGG | 0.286 |
| GCGGTTA | 0.48 |
| CGCAACC | 0.252 |
| CCACAAA | 0.422 |
| GTGGTAA | 0.403 |

Series 3 — technique: RNA Bind-n-Seq; molecule type: RNA; medium: in vitro; tested at: 365 nM; relative to: no-protein control; reading: higher = stronger binding
Target: RNA binding protein fox-1 homolog 2, RRM domain, GST-SBP tag (RBFOX2, Homo sapiens, UniProt O43251-10, residues 100-194)
Setting: natural RNA segment, single round, ends assumed
Shared flanks, not repeated: GGGAGUUCUACAGUCCGACGAUC … UGGAAUUCUCGGGUGCCAA
Target sequence (chain): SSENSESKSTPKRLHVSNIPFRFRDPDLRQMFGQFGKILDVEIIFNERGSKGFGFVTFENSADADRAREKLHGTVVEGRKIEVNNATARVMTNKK
| Sequence | RBNS enrichment (R) |
| --- | --- |
| AAACCCUUACAGUGAAGAUGUUUACUCAUUGCCCCCACCUCUGGUCCACACUAGAAAGAAGCUCGCCCCACCUCCACCUGUGAGAUCCGUGAAUUCUCGGAAUGGCAGGG | 0.229 |
| UCAAAAGUGCAUAUGGGACUCAGUCCUUAGGUGUUCUUUUUCUUUUAAGAAAUAACCUCUUACAGUUGUAACCAUUGCGGCUCUGUCCACUUCUCGUUGCUGCUCUGUGG | 0.408 |
| CAAACUCUGUUUUAAGGUUGAGAAAGUUUCAAGGGUGAAGAUCUCAAAACAGUGCUAAAAUCAAAGGUGUUUGCUGUGAAGAAAAACAUGUGUAUAUAUUGCACCUUGAG | 1.22 |
| CUAGACAGCCUCUGGUCUACCAGGACAAGGCCCAGUCCCACUCAGCUCCUUUGAGAGCACCAGAAACGCUUAGGGAGACACCUGUGUUGAGGCCACACUGGGCGCGGUGC | 0.254 |
| GAUCUUCUAAGGGGCCCAGGGCCAACCCUGUAGGCUUCCCCUCUGCUGGGGACGGUAGUUGCUUUUCUCUCUCCUGAUGCUAGGUUGGGGCCCACCCUGCUCCCUGUUCC | 0.423 |
| UCCCAUUCACAUCAUUGGCCUGCGUUGCUGGGGCUUUGAACCACCACCCCGUACUUUGUUUUGCCUGUAGAGUGUUGUAAAAUAUUUUGGAUGUGAAUGUCCUUGCAGGC | 1.03 |
| GGCUGCGAGCAUUUCCCUCCCGGGAGAGGAGAUCAGGGCGACCUGCACGCACUGCGUAGAGCCUGGAAGGGAAGUGAGAAACCAGCCGACCGGCCCUGCCCCUCUUCCCG | 0.494 |
| GUGCUCACCUCCUAGGCCAUGGAGCCUGAGGGGGCCUGCACCAGGUUUGCUGAAACUGACAGAGCCUGGGCUCCAGACCUCUCUCCCUCCUACAGUGCUCUCCCUCCCUG | 0.921 |
| CAGCCAUGCCUGGCUAGGACAGCCAAAUUGUUGUUGUUUCAAGUCUGGUUUCAUUUGCUUCCCUGCCGGGUUUAUUGUGUGUACCCCAUUUGUACUCCCAAUAACCUGAA | 0.325 |
| UUUCCACAGGCAGCAUCCCAAGGUUCAAUAAGGCCUUAUUUAACAAGCAAGCAAAAUGCAAACCAAACCAUUAUUCAUUUAUUGGCUUAAGUAUGCUUUCUCCUGAAAAC | 0.389 |
| UGGUGGAAGACACCCACCAGGUCAUACAAUGUGAACUUUUGUAUCUCUGCAGUGGUUUCAAGGACAAAUAGUGUCCAAUGUAUUGGGCCAUUUUUCCUGCUGUUUUUAUA | 0.479 |
| ACAUGACAGGACCUAUCGUUGAGGUUUCUAAGACUUACUAUGGGCUGUAAACCUGUUUUUUAAAACUAUUUUAGAAACCUGAGACUUGCCGUCUGGCAUUUUAGUUUAAU | 0.672 |

Series 4 — target: CCNB2, cyclin fold, Cln2 fusion (human); technique: yeast growth competition, sequencing; medium: yeast; setting: weak parent motif; relative to: not given; reading: higher = stronger binding
Parent: CDC6 docking peptide (human); TLKGRRLVFDNQL
| Substitution | normalised enrichment score |
| --- | --- |
| TLKGRRLVFDNQR [L13R] | 0.31 |
| TLKIRRLVFDNQL [G4I] | 0.75 |
| TLKYRRLVFDNQL [G4Y] | -0.408 |
| TLKGRRLVFDVQL [N11V] | 0.0519 |
| TAKGRRLVFDNQL [L2A] | -0.0268 |
| TLKCRRLVFDNQL [G4C] | 0.614 |
| TLKGRRLNFDNQL [V8N] | 0.666 |
| TLKTRRLVFDNQL [G4T] | -0.0904 |
| TLKGRRLVPDNQL [F9P] | 0.336 |
| TLKGRRLVFDNVL [Q12V] | 0.516 |
| CLKGRRLVFDNQL [T1C] | 0.211 |
| TLEGRRLVFDNQL [K3E] | -0.0512 |
| QLKGRRLVFDNQL [T1Q] | -0.109 |
| TLKGRRLVFDNHL [Q12H] | 0.396 |
| TLKGRRCVFDNQL [L7C] | 0.0565 |
| TLKGRMLVFDNQL [R6M] | 0.432 |
| TLKGRRLVFTNQL [D10T] | 0.0171 |
| ELKGRRLVFDNQL [T1E] | 0.0163 |
| TLKGRRLVFDLQL [N11L] | 0.066 |

Other studies, line by line
| Molecule | target | assay | system | setting | how to read | measurement | result |
| --- | --- | --- | --- | --- | --- | --- | --- |
| PhoQ, residues 284 288 289 292 302 303 TLSLKA | PhoP, residues 12 14 15 18 19 LWHSL (Escherichia coli, UniProt P23836) | Sort-seq, measured: YFP reporter | E. coli | PhoQ-PhoP variant library, added: 10 µM Mg2+ | relative to: high Mg2+ state, higher = stronger signaling | fold induction | 0.598 |

Excerpt of the above (series 2):
| Sequence | E-score |
| --- | --- |
| TGCCGCA | 0.252 |
| ACCGCGA | 0.429 |
| CCACAAA | 0.422 |
| AACCACT | 0.379 |
| GCGGTTA | 0.48 |
| ATACCAC | 0.326 |
| TCCGCAA | 0.292 |
